# Measurements pooled from the literature.
# ± marks the error that the study gave.
# PDE1C: Dual specificity calcium/calmodulin-dependent 3',5'-cyclic nucleotide phosphodiesterase 1C (PDE1C, Homo sapiens, UniProt Q14123)
# Sequence of UniProt Q14123 (whole entry, looked up): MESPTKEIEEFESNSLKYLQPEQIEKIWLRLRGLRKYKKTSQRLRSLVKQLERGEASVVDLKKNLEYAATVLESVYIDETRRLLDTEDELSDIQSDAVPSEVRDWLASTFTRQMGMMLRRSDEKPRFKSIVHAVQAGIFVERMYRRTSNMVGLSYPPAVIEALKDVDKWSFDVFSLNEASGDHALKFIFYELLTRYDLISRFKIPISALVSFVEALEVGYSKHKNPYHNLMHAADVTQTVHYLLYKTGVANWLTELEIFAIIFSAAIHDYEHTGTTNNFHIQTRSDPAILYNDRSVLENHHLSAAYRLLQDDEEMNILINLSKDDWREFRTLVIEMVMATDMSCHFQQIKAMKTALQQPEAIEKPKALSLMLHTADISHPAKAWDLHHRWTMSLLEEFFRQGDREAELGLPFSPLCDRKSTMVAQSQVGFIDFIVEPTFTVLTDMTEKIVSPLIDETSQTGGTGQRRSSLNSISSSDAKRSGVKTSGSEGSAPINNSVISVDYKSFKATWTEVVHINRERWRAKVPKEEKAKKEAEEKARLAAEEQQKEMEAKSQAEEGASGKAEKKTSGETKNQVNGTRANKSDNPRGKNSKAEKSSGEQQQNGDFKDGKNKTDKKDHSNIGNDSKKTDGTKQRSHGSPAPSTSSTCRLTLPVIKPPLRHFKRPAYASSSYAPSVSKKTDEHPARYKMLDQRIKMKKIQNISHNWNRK
# PAK2: Serine/threonine-protein kinase PAK 2 (PAK2, Homo sapiens, UniProt Q13177)
# Sequence of UniProt Q13177 (whole entry, looked up): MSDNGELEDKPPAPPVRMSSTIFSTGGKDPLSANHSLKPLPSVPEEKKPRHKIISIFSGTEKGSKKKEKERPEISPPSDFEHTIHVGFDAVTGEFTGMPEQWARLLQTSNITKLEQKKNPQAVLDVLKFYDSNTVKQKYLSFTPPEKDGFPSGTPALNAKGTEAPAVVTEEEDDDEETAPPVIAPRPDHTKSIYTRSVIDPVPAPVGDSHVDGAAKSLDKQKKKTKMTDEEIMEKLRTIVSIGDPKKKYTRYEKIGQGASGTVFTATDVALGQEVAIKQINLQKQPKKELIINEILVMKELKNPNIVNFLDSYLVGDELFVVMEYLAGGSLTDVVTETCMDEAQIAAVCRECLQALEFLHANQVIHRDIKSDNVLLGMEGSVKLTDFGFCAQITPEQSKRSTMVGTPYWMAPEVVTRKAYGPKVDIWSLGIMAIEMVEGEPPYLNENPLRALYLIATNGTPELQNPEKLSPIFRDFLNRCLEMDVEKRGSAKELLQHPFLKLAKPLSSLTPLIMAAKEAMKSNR
# Urease: Urease (Canavalia ensiformis, UniProt P07374)
# Sequence of UniProt P07374 (whole entry, looked up): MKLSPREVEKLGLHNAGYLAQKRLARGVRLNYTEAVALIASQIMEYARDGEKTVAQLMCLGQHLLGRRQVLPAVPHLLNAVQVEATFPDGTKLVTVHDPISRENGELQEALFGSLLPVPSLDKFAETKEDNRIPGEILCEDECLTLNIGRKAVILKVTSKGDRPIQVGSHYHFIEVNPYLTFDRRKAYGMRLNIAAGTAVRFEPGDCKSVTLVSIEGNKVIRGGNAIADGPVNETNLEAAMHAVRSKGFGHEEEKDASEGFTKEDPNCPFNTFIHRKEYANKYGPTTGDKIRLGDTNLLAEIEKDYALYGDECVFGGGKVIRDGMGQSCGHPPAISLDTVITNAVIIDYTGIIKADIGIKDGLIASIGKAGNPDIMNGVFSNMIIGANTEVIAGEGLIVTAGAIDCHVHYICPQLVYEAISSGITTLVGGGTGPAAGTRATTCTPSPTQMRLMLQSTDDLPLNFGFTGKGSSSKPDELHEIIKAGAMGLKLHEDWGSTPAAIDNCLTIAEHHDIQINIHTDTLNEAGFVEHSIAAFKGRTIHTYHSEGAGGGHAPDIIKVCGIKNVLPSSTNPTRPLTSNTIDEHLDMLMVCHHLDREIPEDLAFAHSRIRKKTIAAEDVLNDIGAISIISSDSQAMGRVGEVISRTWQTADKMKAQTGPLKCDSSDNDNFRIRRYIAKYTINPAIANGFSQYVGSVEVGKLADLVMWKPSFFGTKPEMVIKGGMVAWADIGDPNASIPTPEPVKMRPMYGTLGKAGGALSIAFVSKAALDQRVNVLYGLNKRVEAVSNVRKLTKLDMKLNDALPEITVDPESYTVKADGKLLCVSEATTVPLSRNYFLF
# crk3 with CYC6: crk3, with CYC6 (Leishmania mexicana, UniProt O15851)
# SNCA pre-formed fibrils: Alpha-synuclein, pre-formed fibrils (SNCA, Homo sapiens, UniProt P37840)
# Proteasome subunit beta type-10: Proteasome subunit beta type-10 (Homo sapiens, UniProt P40306)
# Sequence of UniProt P40306 (whole entry, looked up): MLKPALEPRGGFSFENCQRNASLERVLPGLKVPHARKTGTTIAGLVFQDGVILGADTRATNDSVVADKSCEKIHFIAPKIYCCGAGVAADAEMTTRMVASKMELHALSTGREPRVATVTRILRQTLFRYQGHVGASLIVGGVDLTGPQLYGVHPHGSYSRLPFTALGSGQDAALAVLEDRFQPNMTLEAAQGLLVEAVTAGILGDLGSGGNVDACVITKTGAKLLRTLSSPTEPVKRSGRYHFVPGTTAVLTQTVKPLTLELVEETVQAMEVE
# SYK tandem SH2 domains: Tyrosine-protein kinase SYK, tandem SH2 domains (SYK, Homo sapiens, UniProt P43405)
# MAL12: Alpha-glucosidase MAL12 (MAL12, Saccharomyces cerevisiae S288c, UniProt P53341)
# Sequence of UniProt P53341 (whole entry, looked up): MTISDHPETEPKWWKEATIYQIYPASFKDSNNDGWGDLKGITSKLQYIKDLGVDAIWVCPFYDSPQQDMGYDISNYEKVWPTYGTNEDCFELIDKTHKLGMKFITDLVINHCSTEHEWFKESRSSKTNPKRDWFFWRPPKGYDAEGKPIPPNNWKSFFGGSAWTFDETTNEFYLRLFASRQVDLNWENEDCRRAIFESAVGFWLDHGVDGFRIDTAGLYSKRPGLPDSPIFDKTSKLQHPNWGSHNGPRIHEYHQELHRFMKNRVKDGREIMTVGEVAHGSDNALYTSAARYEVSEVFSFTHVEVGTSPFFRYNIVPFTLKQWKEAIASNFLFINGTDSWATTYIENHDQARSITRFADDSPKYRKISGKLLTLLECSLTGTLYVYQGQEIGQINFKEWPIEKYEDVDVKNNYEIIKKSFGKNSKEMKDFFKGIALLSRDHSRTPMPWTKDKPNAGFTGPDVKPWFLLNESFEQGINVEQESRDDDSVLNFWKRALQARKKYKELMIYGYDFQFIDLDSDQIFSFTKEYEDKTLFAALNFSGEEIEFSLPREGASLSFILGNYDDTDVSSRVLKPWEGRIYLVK
# Sequence of UniProt P80457 (whole entry, looked up): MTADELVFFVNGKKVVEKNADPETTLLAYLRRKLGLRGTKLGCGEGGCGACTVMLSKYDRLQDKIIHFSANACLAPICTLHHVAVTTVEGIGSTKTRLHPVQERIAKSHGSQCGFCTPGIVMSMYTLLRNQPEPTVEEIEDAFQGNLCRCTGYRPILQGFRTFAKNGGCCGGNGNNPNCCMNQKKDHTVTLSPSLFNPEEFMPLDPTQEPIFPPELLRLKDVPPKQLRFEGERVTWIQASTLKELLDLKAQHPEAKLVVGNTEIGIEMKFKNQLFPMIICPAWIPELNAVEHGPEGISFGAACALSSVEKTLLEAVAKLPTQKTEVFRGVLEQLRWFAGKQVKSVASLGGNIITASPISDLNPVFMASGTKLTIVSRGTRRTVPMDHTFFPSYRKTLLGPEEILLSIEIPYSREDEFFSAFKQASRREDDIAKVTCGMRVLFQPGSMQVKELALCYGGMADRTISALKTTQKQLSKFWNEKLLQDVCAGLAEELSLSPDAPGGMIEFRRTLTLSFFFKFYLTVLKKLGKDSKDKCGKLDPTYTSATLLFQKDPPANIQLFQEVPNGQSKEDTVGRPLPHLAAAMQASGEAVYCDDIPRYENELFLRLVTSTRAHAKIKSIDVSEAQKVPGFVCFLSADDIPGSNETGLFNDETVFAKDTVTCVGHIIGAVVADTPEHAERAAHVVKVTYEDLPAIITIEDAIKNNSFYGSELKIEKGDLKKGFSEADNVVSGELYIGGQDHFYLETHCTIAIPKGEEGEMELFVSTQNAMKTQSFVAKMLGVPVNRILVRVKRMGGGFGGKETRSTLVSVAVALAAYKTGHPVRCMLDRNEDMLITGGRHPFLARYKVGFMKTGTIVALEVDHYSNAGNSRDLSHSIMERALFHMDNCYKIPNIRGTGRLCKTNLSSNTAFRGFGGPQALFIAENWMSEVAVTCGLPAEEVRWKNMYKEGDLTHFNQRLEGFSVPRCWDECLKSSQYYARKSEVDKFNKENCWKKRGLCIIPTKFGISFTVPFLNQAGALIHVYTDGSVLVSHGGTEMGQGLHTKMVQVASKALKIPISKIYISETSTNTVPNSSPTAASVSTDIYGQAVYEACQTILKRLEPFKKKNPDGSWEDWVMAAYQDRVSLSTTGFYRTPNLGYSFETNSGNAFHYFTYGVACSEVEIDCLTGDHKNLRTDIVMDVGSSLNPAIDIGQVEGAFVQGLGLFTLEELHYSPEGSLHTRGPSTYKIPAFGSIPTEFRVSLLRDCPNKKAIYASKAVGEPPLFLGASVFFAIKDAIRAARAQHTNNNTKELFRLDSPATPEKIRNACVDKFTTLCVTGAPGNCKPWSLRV
# Sequence of UniProt P14416 (whole entry, looked up): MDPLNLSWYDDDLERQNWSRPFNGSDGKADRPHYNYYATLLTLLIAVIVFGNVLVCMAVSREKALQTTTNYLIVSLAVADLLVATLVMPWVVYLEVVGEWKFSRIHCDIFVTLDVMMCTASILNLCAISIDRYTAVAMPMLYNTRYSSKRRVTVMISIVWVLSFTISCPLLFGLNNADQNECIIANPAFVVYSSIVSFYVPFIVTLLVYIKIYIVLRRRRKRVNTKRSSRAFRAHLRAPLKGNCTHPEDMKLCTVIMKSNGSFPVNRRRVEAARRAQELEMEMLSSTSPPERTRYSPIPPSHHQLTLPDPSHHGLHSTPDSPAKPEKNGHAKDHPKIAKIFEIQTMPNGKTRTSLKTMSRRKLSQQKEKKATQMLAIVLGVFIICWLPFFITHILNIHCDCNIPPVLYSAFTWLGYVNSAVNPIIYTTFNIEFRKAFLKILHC
# Sequence of UniProt P00915 (whole entry, looked up): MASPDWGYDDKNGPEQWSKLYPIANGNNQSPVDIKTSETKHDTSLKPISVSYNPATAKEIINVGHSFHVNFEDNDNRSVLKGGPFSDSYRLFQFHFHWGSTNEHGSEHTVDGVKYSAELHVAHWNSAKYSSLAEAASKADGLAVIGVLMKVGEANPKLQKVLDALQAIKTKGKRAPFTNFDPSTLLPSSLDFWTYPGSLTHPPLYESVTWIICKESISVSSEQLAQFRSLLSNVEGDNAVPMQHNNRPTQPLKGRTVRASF
SMILES,target,assay,test system,conditions,IC50 [µM]
C=C(C)C(=O)N(c1ccc(Cl)nc1Cl)C(C(=O)NCCCOc1ccc2c(-c3ccccc3C(=O)OCC)c3ccc(=O)cc-3oc2c1)c1ccc(OC(C)=O)cc1 (stereo not drawn),"ALOX15 (Homo sapiens, UniProt P16050)","enzyme activity, inhibitor, absorbance",,,> 100
Cc1ccc2c(c1)nc(NC(=O)c1cccc(C(F)(F)F)c1)n2[C@H]1CC[C@H](N)CC1,"CLK1 (Homo sapiens, UniProt P49759)",ADP-Glo,,"10 min pre-incubation, with: ATP 10 µM",> 20
CC(C)(C)n1ncc2c(=O)n(Cc3cccc(F)c3)c(NCc3ccccn3)nc21,PDE1C,"enzyme activity, inhibitor, radiometric",,,0.0039
Cc1nn(-c2cccc(N)c2)c(=O)c2cnc(Nc3ccc(N4CCNCC4)cc3)nc12,PAK2,"enzyme activity, inhibitor",,,3.4
Cc1cccc(-c2cc(CN3c4ccccc4C=Cc4ccccc43)on2)c1,Urease,"enzyme activity, inhibitor",,,9.48
COc1ccc(OC)c(CN2CCN(Cc3cc(OC)c(O)c(OC)c3)CC2)c1,"Alpha-synuclein, fibrils (SNCA, Homo sapiens, UniProt P37840)","fibril growth, conformation-specific ELISA",,"20 h, with: 6 µM monomer",4 ± 2
Cc1cccc(-c2cnn3ccc(Nc4ccc(N5CCOCC5)cc4)nc23)c1,crk3 with CYC6,"enzyme activity, inhibitor, radiometric",,"with: Leishmania major CYC6 cyclin, 1 µM ATP",2.6
Cc1cc(C)c(S(=O)(=O)N(CC(=O)O)c2ccc(Nc3ccnc(N4CCCC4)n3)cc2)c(C)c1,"ATM (Homo sapiens, UniProt Q13315)","enzyme activity, inhibitor",,,> 100
CC(=O)N[C@H]1[C@H]([C@H](O)[C@H](O)CNC(=O)c2ccc(-c3ccccc3)cc2)O[C@@](OCc2cn(CC(O)Cn3c([N+](=O)[O-])cnc3C)nn2)(C(=O)O)C[C@@H]1O (stereo partly drawn),"CD22 (Homo sapiens, UniProt P20273)","ligand binding, inhibitor, competitive bead binding flow cytometry",,with: 6'SLN(Gc)-PAA-biotin beads,0.38 ± 0.02
CC[C@H](C)n1cc(C)c2c(C(=O)NCc3c(C)cc(C)[nH]c3=O)cc(-c3ccc(N4CCN(C(=O)CCOCCOCCOCCOCCNC(=O)CCCC[C@@H]5SC[C@@H]6NC(=O)N[C@@H]65)CC4)nc3)cc21,"Histone-lysine N-methyltransferase EZH2, PRC2 pentameric complex (EZH2, Homo sapiens, UniProt Q15910)","enzyme activity, inhibitor",,with: H3K27me3 activating peptide,0.0032
CCN1/C(=C/C(C)=O)Sc2ccc(F)cc21,"Adra1b (Rattus norvegicus, UniProt P15823)","ligand displacement, radioligand",,,> 30
Cc1ccc(Nc2cc(NC3CC3)n3ncc(C#N)c3n2)cc1NC(=O)C1CC1,"SGK1 (Homo sapiens, UniProt O00141)",inhibitor,,,> 10
CN1CCC(n2cc(-c3ccc4cc(NC(=O)Nc5cccc(C(=O)NO)c5)ccc4c3)cn2)CC1,SNCA pre-formed fibrils,"binding to RAGE, inhibitor, ELISA",,with: FLAG-α-syn PFFs 100 nM,1.58
COc1cc(OC)c(/N=N/c2cccc(C(=O)NO)c2)c(OC)c1,Urease,"enzyme activity, inhibitor, absorbance",,pH 7.3,86
COc1ccc(-c2cnn3ccc(Nc4cc(OC)c(OC)c(OC)c4)nc23)cc1OC,crk3 with CYC6,"enzyme activity, inhibitor, radiometric",,"with: Leishmania major CYC6 cyclin, 1 µM ATP",6
CC(=O)N(C)CCN1CCN(c2cnc3c(cc(C(=O)NCc4ccc(Cl)cc4)c(=O)n3CC(=O)N3CC(C)(F)C3)n2)C1=O,"DNA polymerase catalytic subunit (Human cytomegalovirus, UniProt P08546)",enzyme activity,,at least duplicate,0.84
Clc1ccccc1-c1cc(CN2c3ccccc3C=Cc3ccccc32)on1,Urease,"enzyme activity, inhibitor",,,> 27
CC(=O)c1cnc2ccc(-c3cc(Cl)c(O)c(Cl)c3)nc2c1N[C@H]1CC[C@H](CN(C)C)CC1,"Receptor-like protein kinase FERONIA (FER, Arabidopsis thaliana, UniProt Q9SCZ4, M613A)","kinase activity, inhibitor, ADP-Glo",,"60 min, with: 50 µM ATP",1.91
CCN(CC)CC(=O)Nc1cccc(-n2cc(-c3ccc4ccc(-c5cn(-c6cccc(NC(=O)CN(CC)CC)c6)nn5)cc4c3)nn2)c1,PAK2,"enzyme activity, inhibitor",,,> 10
COc1cc(OC)c(/N=N/c2ccc(C(=O)NO)c(F)c2)c(OC)c1,Urease,"enzyme activity, inhibitor, absorbance",,pH 7.3,88
C[C@H](C(=O)O)n1nc(Cn2cc3cc(OCCF)c(Cl)cc3n2)c2ccccc2c1=O,"S1PR1 (Homo sapiens, UniProt P21453)","ligand displacement, radioligand",,cell membranes,> 1
Brc1ccccc1-c1cc(CN2c3ccccc3C=Cc3ccccc32)on1,Urease,"enzyme activity, inhibitor",,,> 27
CC(C)C[C@H](NC(=O)[C@@H](NC(=O)[C@H](Cc1ccccc1)NC(=O)c1ccc(C(C)(C)C)cc1)C1CCCC1)C(=O)N[C@@H](CCCCN(C)C1CC2CCC1C2)C(=O)N[C@@H](CO)C(N)=O (stereo partly drawn),"Chromobox protein homolog 7 (Homo sapiens, UniProt O95931)","ligand displacement, TR-FRET",,,> 30
CC(C)C[C@H](NC(=O)[C@H](Cc1ccc(CN)cc1)NC(=O)[C@H](Cc1ccccc1)N=[N+]=[N-])C(=O)N[C@H](C(=O)[C@@]1(C)CO1)C1CCCCC1,Proteasome subunit beta type-10,"inhibitor, biochemical",,,4.84
C[C@@H](Nc1nc2c(cnn2C(C)(C)C)c(=O)n1Cc1cccc(F)c1)c1ccc(Cl)cc1,"PDE2A (Homo sapiens, UniProt O00408)","enzyme activity, inhibitor",,,3.15
CCn1nc(Cl)c2c1-c1cnc(N)c(c1)O[C@H](C)c1cc(F)ccc1-c1nn(C)cc1C2,"FRK (Homo sapiens, UniProt P42685)","enzyme activity, inhibitor, radiometric",,,0.895
C[S@@](=N)(=O)c1ccc(C(=O)Nc2cc(-c3ccc(F)cc3)ccc2N)cc1,"Histone deacetylase (HDAC1 and HDAC2), in Sin3 complex (HDAC1/HDAC2, Homo sapiens, UniProt Q13547+Q92769)","enzyme activity, inhibitor",,,> 100
O=C(Nc1cc(-c2ccc(Cl)cc2)[nH]n1)C1CC1,crk3 with CYC6,"enzyme activity, inhibitor, radiometric",,"with: Leishmania major CYC6 cyclin, 1 µM ATP",1.5
CN1CCC(CNc2nc3c(cnn3C(C)(C)C)c(=O)n2Cc2cccc(F)c2)CC1,PDE1C,"enzyme activity, inhibitor, radiometric",,,0.118
CC[C@H](C)[C@H](N)C(=O)NS(=O)(=O)CC(=O)N[C@@]1(C(=O)O)[C@@H](OC(=O)[C@@H](N)[C@@H](C)c2ccccc2)C[C@H]2C(C(N)=O)=CN(C)C[C@H]21,"CA1 (Homo sapiens, UniProt P00915)","enzyme activity, inhibitor, absorbance",,,2.4
CCOc1cc(-c2cc(CN3c4ccccc4C=Cc4ccccc43)on2)ccc1Cl,Urease,"enzyme activity, inhibitor",,,27
CN(CB(O)O)C(=S)[C@@H](N)CCC(=O)O,"Dipeptidyl peptidase 8 (Homo sapiens, UniProt Q6V1X1)","enzyme activity, inhibitor, fluorescence",,,12
Cc1ccc2nc(C)n(/N=C/c3ccc(C(=O)O)cc3)c(=O)c2c1,"XDH (Bos taurus, UniProt P80457)","enzyme activity, inhibitor",,,103 ± 4.17
O=C(Nc1ccc(C(=O)NO)cc1)OCc1ccc2ccccc2c1,SNCA pre-formed fibrils,"binding to mouse LAG3 D1, inhibitor, ELISA",,with: FLAG-α-syn PFFs 100 nM,4.94
COc1cc(OC)c2c(=O)cc(-c3cc(C)c(OCCCN4CCN(C)CC4)c(C)c3)oc2c1,"Bromodomain-containing protein 2, BD1 (BRD2, Homo sapiens, UniProt P25440)","cell-free assay, TR-FRET",,,1.28
Nc1ncc(-c2cc(-c3cnn(CC(F)(F)F)c3)ncc2F)nc1C(=O)NC1CNCC(F)C1 (stereo not drawn),"MKNK2 (Homo sapiens, UniProt Q9HBH9)","enzyme activity, inhibitor, radiometric",,,0.209
COc1cc(O)cc2c1C1(CCC(=O)CC1)CC2,rat intestinal maltase,inhibitor,rat intestinal acetone powder,"10 min, 37 °C, with: maltose 10 mM",1560 ± 180
CC(C)c1nnc(S)[nH]1,SYK tandem SH2 domains,"binding, inhibitor, TR-FRET",,with: FITC-FCER1G phospho-ITAM peptide,12.5 ± 0.57
O=C1Nc2c(Br)cccc2/C1=C1/Nc2ccccc2C1=NO,"AXL (Homo sapiens, UniProt P30530)",,,,> 10
CN1CCN(c2cccc3cc(NC(=O)Nc4cccc(C(=O)NO)c4)ccc23)CC1,SNCA pre-formed fibrils,"binding to RAGE, inhibitor, ELISA",,with: FLAG-α-syn PFFs 100 nM,1.04
O=[N+]([O-])c1ccc(O)c(/C=N/Nc2ccccc2)c1,"KDR (Homo sapiens, UniProt P35968)","enzyme activity, inhibitor, ATP luminescence",,,4.06
CC(C)(COC(=O)/C=C/c1ccc(Cl)cc1)CC1=C(O)C(=O)c2ccccc2C1=O,MAL12,"enzyme activity, inhibitor",,,17.6
Cc1cncn1Cc1ccc(-c2cccc(Br)c2)cc1,"QPCT (Homo sapiens, UniProt Q16769)",,,,1.31
CCCCCCCCC=CCCCCCCCC(=O)OCC(C)(C)CC1=C(O)C(=O)c2ccccc2C1=O,MAL12,"enzyme activity, inhibitor",,,3.24
Cc1ccc(NS(=O)(=O)c2c(C(=O)N3CCCC3)c(C)n(C)c2C)cc1Cl,"DRD2 (Homo sapiens, UniProt P14416)",,,,> 100
Cc1cnc(S)n1C,SYK tandem SH2 domains,"binding, inhibitor, TR-FRET",,with: FITC-FCER1G phospho-ITAM peptide,15 ± 3.5
Clc1cccc(-c2cc(CN3c4ccccc4C=Cc4ccccc43)on2)c1,Urease,"enzyme activity, inhibitor",,,6.34
CC(C)C[C@H](NC(=O)[C@H](Cc1ccc(CN)cc1)NC(=O)[C@H](Cc1ccccc1)N=[N+]=[N-])C(=O)N[C@@H](CC1CCCC2CCCCC21)C(=O)[C@@]1(C)CO1 (stereo partly drawn),Proteasome subunit beta type-10,"enzyme activity, inhibitor",,lysate,0.0955
